{"data": "Measurements from different studies", "note": "Parts stem from different laboratories: compare values within a part only. Positions count from the first letter of the parent shown."}
{"data": "Sample 1", "target": "HLA class I histocompatibility antigen, A alpha chain, allele A*25:01 (Homo sapiens, UniProt P04439)", "observed": "peptide-MHC binding", "form": "peptide", "concentration": "concentration not given"}
{"Sequence": "EPFLVQFWI", "binding": "inactive"}
{"Sequence": "MEDCPNEGV", "binding": "inactive"}
{"Sequence": "FLYPSWSLY", "binding": "inactive"}
{"Sequence": "SSLLWGFYL", "binding": "inactive"}
{"Sequence": "FLYDRLAST", "binding": "inactive"}
{"Sequence": "NLFEIEWEE", "binding": "inactive"}
{"Sequence": "NSESGNSRY", "binding": "inactive"}
{"Sequence": "LPPVVPPLI", "binding": "inactive"}
{"data": "Sample 2", "target": "CCNA1, cyclin fold, Cln2 fusion (human)", "technique": "yeast growth competition, sequencing", "matrix": "yeast", "notes": "strong parent motif", "relative to": "not given", "direction": "higher = stronger binding", "starting sequence": "viral docking peptide; YKVKRRLVFGADD"}
{"Substitution": "G10Y", "normalised enrichment score": 1.11}
{"Substitution": "R5N", "normalised enrichment score": -0.363}
{"Substitution": "D12Y", "normalised enrichment score": 0.932}
{"Substitution": "V3N", "normalised enrichment score": 0.0659}
{"Substitution": "R6I", "normalised enrichment score": 0.29}
{"Substitution": "R6D", "normalised enrichment score": 0.131}
{"Substitution": "G10V", "normalised enrichment score": 1.09}
{"Substitution": "R6H", "normalised enrichment score": 0.536}
{"data": "Single results of other studies", "concentration": "concentration not given"}
{"Molecule": "Picrotoxin", "tested on": "Sarcocystis neurona", "test": "HTS", "quantity": "activity", "value": "inactive"}
{"Molecule": "Cc1nn(C)c(C)c1CNS(=O)(=O)c1ccc(C(C)C)cc1", "tested on": "HEK-293T-ACE2-TMPRSS2", "test": "cell count", "quantity": "viability", "value": "74%"}
